Measured values from different studies.
Protocols differ between the studies behind these lines.

Under “subjects with treatment-related adverse event”, CN1CCN(c2cccc3c2CCN(C(=O)/C=C/c2c(-n4cnnn4)ccc(Cl)c2F)[C@@H]3C(=O)Nc2ccc(C(=O)O)cc2)C(=O)C1 is recorded as 0% (healthy human subjects; intravenous infusion, 9 mg/h, 5 days).
Under “subjects with Vomiting TEAEs”, Cc1cc(-c2nccc3c2ccn3CC(=O)Nc2ccc(-c3cnccn3)cn2)ccn1 is recorded as 0% (human; SAD part, single 7 mg dose).
CNC(=O)c1ccc(-c2cnc3ncc(Cc4ccc5ncccc5c4)n3n2)cc1F — result for “subjects with adverse event”: 7.4% (healthy human subjects; oral, 200 mg, Hypertension, all grades, all causality, with: itraconazole 200 mg/day).
For Cc1cc(Nc2cc3ncccc3c(N[C@@H]3C[C@H]4CC[C@@H](C3)N4CCC#N)n2)n[nH]1, “subjects with contact dermatitis” read 0% (healthy human; oral, 300 mg multiple doses, 14 days).
For C[C@H]1CN(C(=O)CC#N)[C@]12CCN(c1ncnc3[nH]ccc13)C2, “subjects with Headache” read 0% (healthy human; oral, 12 mg single).
Under “subjects related visual brightness”, C[C@@H](Oc1ccc(S(C)(=O)=O)cc1C(=O)N1C[C@@H]2C[C@]2(c2cc(C(F)(F)F)on2)C1)C(F)(F)F is recorded as 16.7% (human; oral plus intravenous microtracer, dose not given).
CC(C)(C(=O)N1CCOc2c(C#N)cncc2C1)C(F)F: “subjects with TEAE” 0% (measured: medical device site dermatitis; healthy humans, both sexes; oral, 30 mg single dose).
C[C@@H](c1nc(-c2ccc(C#N)cc2)cs1)[C@](O)(Cn1cncn1)c1cc(F)ccc1F: “subjects with TEAEs” 8.3% (measured: contact dermatitis; humans; oral, dose not given, with: ketoconazole).

A few entries again:
CC(C)(C(=O)N1CCOc2c(C#N)cncc2C1)C(F)F: “subjects with TEAE” 0% (measured: medical device site dermatitis; healthy humans, both sexes; oral, 30 mg single dose).
